Assay results from different studies.
± marks the error that the study gave.

CC(C)(O)c1ncc([S@](N)(=O)=NC(=O)Nc2c3c(cc4c2CCC4)CCC3)s1  AUC(0-t) (healthy human, fasted; oral, 100 mg single dose, tablet formulation): 74900 ng·h/mL
[2H]C([2H])([2H])Oc1cc2c(cc1OC([2H])([2H])[2H])[C@H]1CC(=O)[C@H](CC(C)C)CN1CC2  AUC(0-t) (human CYP2D6 extensive metabolizers, plasma; oral, 25 mg, fasted, geometric mean): 0.2 ng·h/mL
Cn1c(=O)oc2ccc(-c3ccc(CC(C#N)NC(=O)C4CNCCCO4)c(F)c3)cc21 (centres unmarked)  AUC(0-t) (human, plasma; 20 mg once daily, day 28, geometric mean): 3500 ng·h/mL
CN[C@@H](CCOc1cccc2ccccc12)c1ccccc1  AUC(0-t) (healthy male humans, plasma; oral, 60 mg of dapoxetine, added: udenafil 200 mg): 187 ± 106 ng·h/mL
CN1CCC[C@]1(C)/C=C/S(=O)(=O)NC(=O)Nc1c2c(cc3c1CCC3)CCC2  AUC(0-t) (human, plasma; oral, 50 mg twice daily, day 14, multiple ascending dose): 122000 ng·h/mL
CC(C)[C@H](NC(=O)CNC(=O)[C@H](CCC(N)=O)NC(=O)[C@H](C)N)C(=O)O  AUC(0-t) (human, both sexes, plasma; intravenous infusion, 15 mg/kg/h, 2 h infusion, geometric mean): 502 ng·h/mL
[2H]C([2H])([2H])NC(=O)c1ccc(N2C(=S)N(c3ccc(C#N)c(C(F)(F)F)c3)C(=O)C2(C)C)cc1F  AUC(0-t) (healthy male humans, plasma; oral, 80 mg, fasting, soft capsules): 334000 ± 61500 ng·h/mL
O=C(CCc1ccc(CNC(C(=O)O)C2CCCCC2)cn1)NO (centres unmarked)  AUC(0-t) (human, plasma; oral, 40 mg once daily, day 1, geometric mean): 221 ng·h/mL
CC1C(c2c(F)ccc(F)c2F)CC(N[14C](=O)c2cnc3c(c2)CC2(C3)C(=O)Nc3ncccc32)C(=O)N1CC(F)(F)F (centres unmarked)  AUC(0-t) (liquid scintillation counting, measured: total radioactivity; human, plasma; oral, 50 mg, single dose, 14C-labelled): 2710 ± 759 ng-eq·h/mL
O=C(CCc1ccc(CNC(C(=O)OC2CCCC2)C2CCCCC2)cn1)NO (centres unmarked)  AUC(0-t) (human, plasma; oral, 20 mg once daily, day 1, geometric mean): 76.7 ng·h/mL
CCc1cc(Nc2nc(-c3ccc(-n4cnc(C)c4)c(F)c3)cs2)c(C)cc1C  AUC(0-t) (human, plasma; oral, 400 mg once daily, day 14, geometric mean): 11900 ng·h/mL

A few entries again:
CC1C(c2c(F)ccc(F)c2F)CC(N[14C](=O)c2cnc3c(c2)CC2(C3)C(=O)Nc3ncccc32)C(=O)N1CC(F)(F)F (centres unmarked)  AUC(0-t) (liquid scintillation counting, measured: total radioactivity; human, plasma; oral, 50 mg, single dose, 14C-labelled): 2710 ± 759 ng-eq·h/mL
